Assay results pooled from the literature.
Every numbered part comes from another study and shows a few of its results, in no order. Changes are numbered by the printed parent chain.

Series 1
Target: Histone acetyltransferase KAT6A, winged helix 1, GST fusion (KAT6A, Homo sapiens, UniProt Q92794, residues 1-85)
Technique: protein binding microarray
Molecule type: double-stranded DNA, one strand shown
Matrix: in vitro
Concentration: not given
Notes: 8-mer, flanks averaged, mean of 2 arrays, mostly near background
Reference: not given
Direction: higher = stronger binding
Residues (chain): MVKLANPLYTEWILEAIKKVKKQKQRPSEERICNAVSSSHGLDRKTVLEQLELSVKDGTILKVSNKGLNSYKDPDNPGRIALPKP
| Sequence | E-score |
| --- | --- |
| ATTCTCAG | -0.199 |
| AAGTAATG | -0.00709 |
| CGAGCGAA | -0.00907 |
| CCTCGGTA | 0.0441 |
| AGTGGTTC | -0.112 |
| CAATATTG | -0.268 |
| CAACATAA | -0.0278 |
| AGTCTATC | -0.134 |
| ACCTTCGG | 0.0144 |
| ATTTATGG | -0.13 |
| ATATTTAG | 0.0251 |
| ACACGCCG | 0.365 |
| CGTGCAAG | 0.0495 |
| AAGAGAAG | -0.169 |
| GGGTGACA | 0.0617 |
| GAGGGCCC | -0.071 |
| AGCTTTAT | -0.148 |
| AACTGTTC | -0.12 |
| AGAGCTGA | -0.262 |
| ACCATCCA | -0.165 |
| ACGCTCAA | 0.0359 |
| AATGAACC | -0.147 |
| AATTGTCG | -0.0294 |
| TTGGAAAA | -0.0858 |
| CATCTTTC | -0.197 |

Series 2
Target: TAR DNA-binding protein 43, full length, His tag (TARDBP, Homo sapiens, UniProt Q13148, residues 1-414)
Technique: RNA Bind-n-Seq
Molecule type: RNA
Matrix: in vitro
Concentration: 20 nM
Notes: 6-mer, flanks averaged, single round
With: 150 mM KCl
Reference: input library
Direction: higher = stronger binding
| Sequence | 6-mer enrichment (R) |
| --- | --- |
| CUCCUA | 0.583 |
| UUCAGU | 0.603 |
| GUAAAA | 0.745 |
| CGCAUC | 0.628 |
| GGCAGA | 1.83 |
| CCGUCA | 0.62 |
| CAUGAC | 0.667 |
| UACGAG | 0.963 |
| CUCGGC | 0.797 |
| CUUAUA | 0.592 |
| GCUCCC | 0.697 |
| AUAUUG | 0.659 |
| CCUAGC | 0.653 |
| UGCUAG | 0.878 |
| AACGGG | 2.17 |
| AAUUCA | 0.592 |
| CAAUGC | 0.666 |
| AGGUAG | 1.46 |
| AGGGCC | 2.09 |
| UUUACU | 0.593 |
| GGCGUG | 3.29 |
| UGGGCC | 1.92 |

Series 3
Target: Fragile X messenger ribonucleoprotein 1, C-terminal low-complexity region (Fmr1, Mus musculus, UniProt P35922)
Technique: RNA Bind-n-Seq
Molecule type: RNA
Matrix: in vitro
Concentration: 200 nM
Notes: whole 134-nt RNA, ends assumed
With: 150 mM LiCl
Reference: input library
Direction: higher = stronger binding
Library: 7-deaza-guanosine replaces G
All sequences stand within: GGGAGUUCUACAGUCCGACGAUC … UGGAAUUCUCGGGUGUCAAGG
| Sequence | log2 enrichment |
| --- | --- |
| CCUGUGCUACACAUCGUAUGUACCGAAUCGGGGUUUUUUGGGUUUUUUGGGGUUUUUUGGAAAGUAUUAUGUUACGCCGUUCGGAUCUGC | 0.297 |
| UGGCCCUGGUGGCAUGCGGGGAGGAAGAGGUGGCCUCAUGGAUCGUGGUGGUCCCGGUGGAAUGUUCAGAGGUGGCCGUGGUCGAGACAG | -1.38 |
| AGUCCUGUGCUACACAUCGUAUGUACCGAAUCGGGAAAGGGUUUUUGGGAAAAAGGGAAAGUAUUAUGUUACGCCGUUCGGAUCUGCACU | -1.77 |
| UGCCCUCCGUGGAGUCUUUGUUUCGAAGUCCGAUAAAGGAAUCUCUAUUCCGGUCUUCUUCUAAAGAGUCUUUGGUACGAACAUCUUCCA | -0.407 |
| UGGCCCUGGUGGCAUGCGGGGAGGAAGAGGUGGCCUCAGGGAUCGUGGUGGUCCCGGUGGAAUGUUCAGAGGUGGCCGUGGUGGAGACAG | -0.301 |
| AGUCCUGUGCUACACAUCGUAUGUACCGAAUCGGCCCCCGGGCCCCCGGCCCCCGGGAAAGUAUUAUGUUACGCCGUUCGGAUCUGCACU | -1.83 |
| UCAAGUCCUGUGCUACACAUCGUAUGUACCGAAUCGGGAAGGGAAGGGAAGGGGAAAGUAUUAUGUUACGCCGUUCGGAUCUGCACUUCC | -0.932 |
| GCAGGAAGUAAAAACAAAUGGAAAUGCUUCGGAUAGUGGCAGGGGUGGGGGUUGCUAAGGAAAGGGUGGGACGGGAGUGGGUAAAGAGUU | 1.27 |

Series 4
Target: ABI1, truncated, D143A, DHFR fusion (Arabidopsis thaliana)
Technique: DHFR PCA, deep sequencing
Matrix: yeast
Notes: methotrexate growth selection, single substitutions
With: (+)-ABA 17 µM
Reference: wild-type fitted maximum
Direction: higher = stronger binding
Starting sequence: PYL1, truncated, DHFR fusion (Arabidopsis thaliana); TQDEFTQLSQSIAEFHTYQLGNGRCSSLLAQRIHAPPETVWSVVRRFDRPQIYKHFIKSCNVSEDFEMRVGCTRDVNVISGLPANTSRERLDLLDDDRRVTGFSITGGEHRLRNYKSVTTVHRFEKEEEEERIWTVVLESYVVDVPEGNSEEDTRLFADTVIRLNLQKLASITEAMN
| Variant | relative binding score [%] |
| --- | --- |
| Y53K | 2.05 |
| E38H | 57.2 |
| N177Q | 87.8 |
| L93E | 60.6 |
| V143C | 77.6 |
| R155Y | 6.99 |
| G108R | -9.99 |
| L29M | 67.3 |
| W41S | -1.86 |
| V62C | 60.4 |
| L166E | -8.23 |
| L164A | 80.3 |
| T135M | 4.17 |
| F124V | 99.2 |
| T17D | 45.5 |

Series 5
Target: CCNB2, cyclin fold, Cln2 fusion (human)
Technique: yeast growth competition, sequencing
Matrix: yeast
Notes: weak parent motif
Reference: not given
Direction: higher = stronger binding
Starting sequence: PKN2 docking peptide (human); VSAVRKLDFSDTM; partner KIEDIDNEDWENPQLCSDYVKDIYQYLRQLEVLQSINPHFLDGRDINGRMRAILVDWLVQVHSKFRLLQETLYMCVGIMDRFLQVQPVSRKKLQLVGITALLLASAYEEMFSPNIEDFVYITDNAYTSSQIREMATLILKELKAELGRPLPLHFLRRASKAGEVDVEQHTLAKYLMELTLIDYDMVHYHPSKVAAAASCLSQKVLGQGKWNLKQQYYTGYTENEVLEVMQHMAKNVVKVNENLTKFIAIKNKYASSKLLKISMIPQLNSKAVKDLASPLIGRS
| Variant | normalised enrichment score |
| --- | --- |
| F9G | 0.505 |
| K6I | 0.0425 |
| S2Q | 0.465 |
| L7C | 0.429 |
| D8K | 0.264 |
| T12G | 0.947 |
| D11F | -0.0864 |
| T12F | 0.904 |
| S2P | -0.00075 |
| L7A | 0.282 |
| D8M | -0.106 |
| L7K | 0.202 |
| S10L | 0.345 |
| F9T | 0.203 |
| L7F | -0.153 |
| T12Y | 0.733 |
| S2E | 0.359 |
| D8R | 0.166 |
| T12K | 0.933 |
| D8G | 0.272 |
| V4K | 1.2 |
| T12D | 1.07 |
| D11W | -0.128 |

Single results of other studies
| Substance | target | assay | test system | conditions | scale | endpoint | result |
| --- | --- | --- | --- | --- | --- | --- | --- |
| PhoQ, residues 284 288 289 292 302 303 SIHMAM | PhoP, residues 12 14 15 18 19 LHATL (Escherichia coli, UniProt P23836) | Sort-seq, item: YFP reporter | E. coli | PhoQ-PhoP variant library, with: 10 µM Mg2+ | reference: high Mg2+ state, higher = stronger signaling | fold induction | 0.651 |
